Published values collected from several papers.
Parts stem from different laboratories: compare values within a part only.

Study 1 — method: protein-binding microarray; molecule type: double-stranded DNA, one strand shown; medium: in vitro; tested at: 0.8 µM; setting: whole 60-bp probe, no competitor; direction: higher = stronger binding; all sequences stand within: … GTCTTGATTCGCTTGACGCTGCTG
Target: Centromere-binding protein 1, full length, N-terminal tag (CBF1, Saccharomyces cerevisiae, UniProt P17106, residues 1-351)
Sequence of UniProt P17106 (whole entry, looked up): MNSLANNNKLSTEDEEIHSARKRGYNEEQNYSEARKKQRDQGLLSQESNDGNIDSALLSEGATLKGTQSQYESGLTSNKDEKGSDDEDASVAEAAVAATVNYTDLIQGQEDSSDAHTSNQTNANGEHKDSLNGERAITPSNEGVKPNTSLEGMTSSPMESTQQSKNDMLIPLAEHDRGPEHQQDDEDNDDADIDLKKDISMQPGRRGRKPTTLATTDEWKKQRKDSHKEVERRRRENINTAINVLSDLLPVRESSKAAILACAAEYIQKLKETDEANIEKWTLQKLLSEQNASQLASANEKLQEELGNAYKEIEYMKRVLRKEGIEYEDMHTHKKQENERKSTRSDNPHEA
| Strand | fluorescence intensity |
| --- | --- |
| CTAATTTCATAATCTGGTGAGAACGTTATCACGTTC | 560 a.u. |
| GAAATTGTTTATTTACACGCAACCCCAGGACATTAG | 576 a.u. |
| GAATTCTCTTTTCATCATGATTTGAGTGTACTATAG | 502 a.u. |
| CTATATAGTGATCGTGGTCATAAATTAATAAAATTC | 610 a.u. |
| CTAGCCGTTTGCAGGCTCATGATGATAAATCTCTTC | 579 a.u. |
| GAATATCATTTAGGTGACGCCTTGTTCTAAGGCTAG | 493 a.u. |
| TGTACGAAGCTATCGCACGCATCTATAGTAGTTAGG | 527 a.u. |
| CTAGTTCCTACAGTTCACGCGCACCTCTTTCTGTTC | 655 a.u. |
| CTACCTTACGACAATTGCGTGACAAATATCACCTTC | 651 a.u. |
| GAAGTAGAATACGCACACGTGTACGCATGCTCCTAG | 5060 a.u. |
| TGTACGAAGCTATGCCACGAGGATATAGTAGTTAGG | 532 a.u. |
| CTATCTATTGATCTCTTCGTGATGCCCGGTTATTTC | 536 a.u. |
| GAAGTTTATCCTTTTCACGTTCTAAAAATCAATTAG | 693 a.u. |
| GAAGTCATGTGATTTTTTGTCACGTTTTGTTGATAG | 11800 a.u. |
| CTATTTCGCATTGTGCACGGAAGGCTTCACCTTTTC | 499 a.u. |
| GAACCATGGAATTACCTCACGTTGTTCACATTATAG | 638 a.u. |
| GAACATTTCGATTTGAGCGTGTTCTAGCTGTTCTAG | 497 a.u. |
| CTATACTGTATTCGTGGTGTCCCTTTTCAGAAATTC | 595 a.u. |
| GAAACATCATCAGGTGATGTCAACTCAGCTTATTAG | 3120 a.u. |
| GAACCATTATACACTTTCACCTGTTGCTGAGTGTAG | 509 a.u. |
| GAACAATTTTCCAGCCACACGTGAAGTAAGCTGTAG | 2000 a.u. |
| CTAGGTAAACCGAGTCACGAAGCTCAATCTTTTTTC | 584 a.u. |
| CTATACCACATGCTTCACATGTACAGAAAGTGGTTC | 1310 a.u. |
| CCTAACTACTATACCATCGTGCAATAGCTTCGTACA | 552 a.u. |
| GAATGGAGCCTTGCCCACTTCCTCGATCGGAATTAG | 478 a.u. |

Study 2 — method: universal PBM; molecule type: double-stranded DNA, one strand shown; medium: in vitro; tested at: 600 nM; direction: higher = stronger binding
Target: Sal-like protein 4, full length isoform A (SALL4, Homo sapiens, UniProt Q9UJQ4, residues 1-1053)
Sequence of UniProt Q9UJQ4 (whole entry, looked up): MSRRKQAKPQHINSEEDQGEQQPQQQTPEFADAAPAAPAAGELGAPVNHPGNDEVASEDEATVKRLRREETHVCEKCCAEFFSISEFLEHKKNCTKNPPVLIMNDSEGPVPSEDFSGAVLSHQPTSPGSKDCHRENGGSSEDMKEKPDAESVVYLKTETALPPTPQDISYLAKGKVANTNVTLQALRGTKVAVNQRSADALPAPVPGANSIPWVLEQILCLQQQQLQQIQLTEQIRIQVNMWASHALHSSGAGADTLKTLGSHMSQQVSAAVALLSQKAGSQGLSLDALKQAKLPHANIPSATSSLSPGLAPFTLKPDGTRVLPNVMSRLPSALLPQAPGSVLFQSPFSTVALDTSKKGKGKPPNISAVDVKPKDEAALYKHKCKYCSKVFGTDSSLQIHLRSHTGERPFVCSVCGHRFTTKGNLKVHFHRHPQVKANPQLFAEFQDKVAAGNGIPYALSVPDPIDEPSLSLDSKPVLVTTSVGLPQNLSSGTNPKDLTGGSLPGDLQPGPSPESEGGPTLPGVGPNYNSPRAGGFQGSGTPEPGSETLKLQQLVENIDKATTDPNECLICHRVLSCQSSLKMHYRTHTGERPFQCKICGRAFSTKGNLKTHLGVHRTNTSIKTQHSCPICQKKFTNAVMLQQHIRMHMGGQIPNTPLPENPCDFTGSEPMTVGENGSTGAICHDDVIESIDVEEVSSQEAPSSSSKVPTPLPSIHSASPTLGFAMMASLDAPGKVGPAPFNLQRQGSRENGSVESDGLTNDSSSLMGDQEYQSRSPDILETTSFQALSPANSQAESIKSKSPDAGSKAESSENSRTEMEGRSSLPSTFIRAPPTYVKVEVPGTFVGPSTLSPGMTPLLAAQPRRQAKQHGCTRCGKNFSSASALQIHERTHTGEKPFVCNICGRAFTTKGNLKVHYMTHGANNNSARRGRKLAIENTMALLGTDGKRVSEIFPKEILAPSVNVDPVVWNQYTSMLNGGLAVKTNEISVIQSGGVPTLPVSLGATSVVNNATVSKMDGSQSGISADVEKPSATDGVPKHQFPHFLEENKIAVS
Setting: 8-mer, flanks averaged, mean of replicates
| Strand | E-score |
| --- | --- |
| GCAGGCCA | -0.321 |
| CACTAAAC | 0.133 |
| GAGGTATA | 0.205 |
| AGGTTGTG | -0.02 |
| CTTAACGC | -0.0979 |
| AACAACGG | -0.0763 |
| CTGAGACA | -0.0873 |
| GATACGGA | 0.104 |
| CTGATCGC | -0.139 |
| GAACTCTA | 0.0136 |
| GCGAACGC | -0.127 |
| GTATCAGA | 0.0579 |
| CTACTAAG | -0.0125 |
| AGCGCTCG | -0.229 |
| AAAAATCA | 0.303 |
| CTTCGAAC | -0.146 |
| ATAGGCTA | 0.114 |
| TAGAGACA | 0.173 |
| GCTTGCAC | -0.18 |
| CATTACCC | -0.0841 |
| GTGCAGGA | -0.11 |
| GACCGATA | -0.018 |
| ACGTCCGG | -0.279 |
| ATTACAAA | 0.315 |
| CACCACAA | -0.0379 |

Study 3 — method: RNA Bind-n-Seq; molecule type: RNA; medium: in vitro; tested at: 200 nM; setting: whole 134-nt RNA, ends assumed; added: 150 mM LiCl; relative to: input library; direction: higher = stronger binding; library: 7-deaza-guanosine replaces G
Target: Ras GTPase-activating protein-binding protein 1, full length (G3BP1, Homo sapiens, UniProt Q13283)
Sequence of UniProt Q13283 (whole entry, looked up): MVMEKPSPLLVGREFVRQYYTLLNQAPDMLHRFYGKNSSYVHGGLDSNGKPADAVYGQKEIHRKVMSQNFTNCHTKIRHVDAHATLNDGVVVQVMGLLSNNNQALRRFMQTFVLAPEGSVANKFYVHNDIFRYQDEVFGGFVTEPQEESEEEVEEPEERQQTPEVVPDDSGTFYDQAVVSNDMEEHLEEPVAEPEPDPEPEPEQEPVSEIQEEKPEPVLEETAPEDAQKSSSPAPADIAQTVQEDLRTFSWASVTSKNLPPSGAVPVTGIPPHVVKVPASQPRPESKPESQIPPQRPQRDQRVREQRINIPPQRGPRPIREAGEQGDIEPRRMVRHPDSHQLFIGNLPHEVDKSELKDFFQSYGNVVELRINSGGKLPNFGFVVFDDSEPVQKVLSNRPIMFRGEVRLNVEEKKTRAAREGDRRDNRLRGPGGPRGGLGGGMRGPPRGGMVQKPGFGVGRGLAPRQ
All sequences stand within: GGGAGUUCUACAGUCCGACGAUC … UGGAAUUCUCGGGUGUCAAGG
| Strand | log2 enrichment |
| --- | --- |
| CAAGUCCUGUGCUACACAUCGUAUGUACCGAAUCGGUUUUUUUGGUUUGGUUUGGAAAGUAUUAUGUUACGCCGUUCGGAUCUGCACUUC | -1.46 |
| CCUCAAGUCCUGUGCUACACAUCGUAUGUACCGAAUCGGUUGGUUGGUUGGGGAAAGUAUUAUGUUACGCCGUUCGGAUCUGCACUUCCA | 0.46 |
| UAACUUUAGAGGAGGAUCUGAUGGAUAUUGCAGUGGACGUGGAUUUGGGGAUGGCUAUAAUGGGUAUGGAGGAGGACCUGGAGGUGGCAA | 0.109 |
| UCCUGUGCUACACAUCGUAUGUACCGAAUCGGGAAAGGGUUUUUUUGGGUUUUUUUGGGAAAGUAUUAUGUUACGCCGUUCGGAUCUGCA | -0.992 |
| ACCUUCACGGCAUGGUGCAACUCCCACCUGCGGAAGGCAGGCACACAGAUCGAGAACAUUGAUGAGGACUUCCGAGACGGGCUCAAGCUC | 0.873 |
| AAGUCCUGUGCUACACAUCGUAUGUACCGAAUCGGGAGGGAAAAAAAGGGAAAGGGAAAGUAUUAUGUUACGCCGUUCGGAUCUGCACUU | 0.151 |
| CCUCAAGUCCUGUGCUACACAUCGUAUGUACCGAAUCGGUUGGGGUUGGUUGGAAAGUAUUAUGUUACGCCGUUCGGAUCUGCACUUCCA | 0.386 |
| UGGCCCUGGUGGCAUGCGGGGAGGAAGAGGUGGCCUCAUGGAUCGUGGUGGUUCCGGUGGAAUGUUCAGAGGUGGCCGUGGUGGAGACAG | 0.497 |
| UGGGAGGUGGAUUUUGUUUAUUUUUUUAGCUCAUUUCCAGGGGUGGGAAUUUUCUUUUAAUAUGUGUCAUGAAUAAAGUUGUUUUUGAAA | -0.87 |
| GUCCUGUGCUACACAUCGUAUGUACCGAAUCGGGAAAAAAGGGAAAAAAGGAAAAAAGGAAAGUAUUAUGUUACGCCGUUCGGAUCUGCA | -0.436 |
| UUUUUGAAUCAAUUUUUAAAACAUGCCAUUGUGUUUCAGGCUCGCGGGAUUGAUGUGCAACAAGUGUCUUUGGUUAUAAAUUAUGAUCUA | -0.915 |

Study 4 — method: protein binding microarray; molecule type: double-stranded DNA, one strand shown; medium: in vitro; tested at: not given; relative to: not given; direction: higher = stronger binding
Target: Histone acetyltransferase KAT6A, winged helix 1, GST fusion (KAT6A, Homo sapiens, UniProt Q92794, residues 1-85)
Setting: 8-mer, flanks averaged, mean of 2 arrays, mostly near background
Residues (chain): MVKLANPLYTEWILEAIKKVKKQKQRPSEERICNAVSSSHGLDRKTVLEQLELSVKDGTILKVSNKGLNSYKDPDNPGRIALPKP
| Strand | E-score |
| --- | --- |
| GCAACCAA | -0.122 |
| GGCCATCA | 0.137 |
| GGACTCTA | -0.0914 |
| AAGGCTCC | -0.118 |
| ACCAGGCC | -0.073 |
| GAAACAAA | -0.224 |
| TAGATTCA | -0.173 |
| AGCTTGTA | -0.256 |
| AGTGAAAC | -0.134 |
| GGGCTATA | -0.0671 |
| CCCAGAGA | -0.261 |
| ATGTGGCA | -0.0351 |
| AAGACTTG | -0.0175 |
| CCAGGTTC | -0.217 |
| ACAAACTG | -0.188 |
| CCATAAAC | -0.112 |
| CGGATTCA | 0.0192 |
| AAGAGACC | -0.0909 |
| CTAGAACA | 0.00585 |
| ACAAGGCG | 0.109 |
| ATCGTGCG | 0.255 |
| AAAGACAT | -0.0508 |
| AAATTGAC | -0.115 |
| ACAGAGAT | -0.215 |

Study 5 — method: protein-binding microarray; molecule type: double-stranded DNA, one strand shown; medium: in vitro; tested at: 2540 nM top; setting: 60-bp whole probe; added: salmon DNA 0.4 mg/ml; relative to: random background probes; direction: higher = stronger binding; all sequences stand within: GCCTAGCAC … GTCTTGATTCGCTTGACGCTGCTG
Target: Interferon regulatory factor 3, full length, phosphomimetic (IRF3, Homo sapiens, UniProt Q14653, residues 1-427, S386D/S396D/S398D/S402D/T404D/S405D)
Target sequence (chain): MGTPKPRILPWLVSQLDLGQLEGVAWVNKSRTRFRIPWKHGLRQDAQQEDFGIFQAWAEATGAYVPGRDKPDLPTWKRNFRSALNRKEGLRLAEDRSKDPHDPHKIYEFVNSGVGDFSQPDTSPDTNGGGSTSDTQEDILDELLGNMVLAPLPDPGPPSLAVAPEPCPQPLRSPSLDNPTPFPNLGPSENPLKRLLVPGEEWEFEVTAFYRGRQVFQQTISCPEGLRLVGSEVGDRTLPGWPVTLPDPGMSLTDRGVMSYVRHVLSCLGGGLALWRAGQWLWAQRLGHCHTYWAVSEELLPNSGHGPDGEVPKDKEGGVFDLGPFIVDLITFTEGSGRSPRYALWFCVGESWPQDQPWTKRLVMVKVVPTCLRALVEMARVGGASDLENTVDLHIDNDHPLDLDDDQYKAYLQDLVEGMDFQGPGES
| Strand | fitted relative affinity [z-score] |
| --- | --- |
| TTAGATTTCGGGGTTCGATTAGTGCTA | 0.983 |
| TTAGGTTTCCTACTGCGTTAGTGCTAG | 4.97 |
| GACGGACTGGGGTTTTGGGACGTGCTA | -0.79 |
| GACGGTTTCCTTCGCCTGACGTGCTAG | 3.72 |
| GACGGTATCGGGGCTGGGGACGTGCTA | 0.611 |
| TCAATTATATATTTATGACTGTGCTAG | 0.396 |
| CTAGTTAAGGTACACCAGCAGTGCTAG | 0.319 |
| GACGGTATTCTTCTCCTGACGTGCTAG | 1.34 |
| GACGGACTGAGTATCGGGACGTGCTAG | 0.00462 |
| TCATTATCCTATATCTGACTGTGCTAG | 2.78 |
| GACGGTATCCTTATCTTGACGTGCTAG | 4.44 |
| TTAGGTTTCCTTATACTTTAGTGCTAG | 7.38 |
| GACGGACTGGGTCTCGGGCCGTGCTAG | -1.08 |
| TACGGACTGGGTATCGGGACGTGCTAG | -0.304 |
| TTAGAATTCGGGACTGGATTAGTGCTA | -0.104 |
| GACGGTCGCGGTTTCGGGACGTGCTAG | 2.54 |
| TTAGGTCTCGGTCTCGGTGAGTGCTAG | 1.04 |
| TCAGTTACCCACCTCAGACTGTGCTAG | 2.56 |
| GTTCAAAGTCCTACGGCTTCGTGCTAG | -0.267 |
| TTAGGTATCCTTCTCCTTTAGTGCTAG | 7.09 |
| GACGATTTCAGTTTCGACACGTGCTAG | 4.5 |
| TTAGTTATCGGGACTGGATTAGTGCTA | 0.465 |

A few entries again (study 5):
| Strand | fitted relative affinity [z-score] |
| --- | --- |
| GACGGACTGGGGTTTTGGGACGTGCTA | -0.79 |
| GACGGTTTCCTTCGCCTGACGTGCTAG | 3.72 |
| GACGGTATCGGGGCTGGGGACGTGCTA | 0.611 |
| TCAATTATATATTTATGACTGTGCTAG | 0.396 |
| CTAGTTAAGGTACACCAGCAGTGCTAG | 0.319 |
| GACGGTATTCTTCTCCTGACGTGCTAG | 1.34 |
| GACGGACTGAGTATCGGGACGTGCTAG | 0.00462 |
| TCATTATCCTATATCTGACTGTGCTAG | 2.78 |
| GACGGTATCCTTATCTTGACGTGCTAG | 4.44 |
